Measured values from different studies.
Lines come from different studies, so protocols differ.
PTK2: Focal adhesion kinase 1 (PTK2, Homo sapiens, UniProt Q05397)
Chain of UniProt Q05397 (whole entry, looked up): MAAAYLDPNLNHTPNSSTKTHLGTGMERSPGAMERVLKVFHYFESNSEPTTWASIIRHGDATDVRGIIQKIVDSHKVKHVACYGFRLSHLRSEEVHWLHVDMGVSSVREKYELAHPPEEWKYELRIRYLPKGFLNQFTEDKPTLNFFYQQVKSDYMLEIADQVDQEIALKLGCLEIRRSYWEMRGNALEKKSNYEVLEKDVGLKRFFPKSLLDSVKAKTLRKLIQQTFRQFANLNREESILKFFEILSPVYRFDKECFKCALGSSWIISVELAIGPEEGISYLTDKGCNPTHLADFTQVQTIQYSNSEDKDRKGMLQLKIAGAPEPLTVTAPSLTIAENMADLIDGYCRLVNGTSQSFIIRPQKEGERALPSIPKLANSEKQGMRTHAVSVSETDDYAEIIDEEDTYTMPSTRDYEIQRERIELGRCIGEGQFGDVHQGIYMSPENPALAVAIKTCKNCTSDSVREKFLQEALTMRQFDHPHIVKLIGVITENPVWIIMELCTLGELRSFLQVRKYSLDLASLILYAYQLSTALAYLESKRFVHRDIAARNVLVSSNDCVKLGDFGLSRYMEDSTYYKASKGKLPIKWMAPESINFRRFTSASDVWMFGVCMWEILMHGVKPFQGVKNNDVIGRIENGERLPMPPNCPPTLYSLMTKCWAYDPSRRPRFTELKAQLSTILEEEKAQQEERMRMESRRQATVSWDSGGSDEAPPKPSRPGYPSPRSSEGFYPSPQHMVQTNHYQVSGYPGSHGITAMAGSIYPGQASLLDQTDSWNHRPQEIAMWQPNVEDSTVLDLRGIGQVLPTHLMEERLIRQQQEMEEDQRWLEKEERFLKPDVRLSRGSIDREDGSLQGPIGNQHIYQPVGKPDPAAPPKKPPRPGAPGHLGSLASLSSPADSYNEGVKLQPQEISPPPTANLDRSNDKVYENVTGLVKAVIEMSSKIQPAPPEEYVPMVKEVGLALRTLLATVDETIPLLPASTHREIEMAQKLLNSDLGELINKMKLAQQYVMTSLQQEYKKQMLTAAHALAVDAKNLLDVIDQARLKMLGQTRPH
UCHL1: Ubiquitin carboxyl-terminal hydrolase isozyme L1 (UCHL1, Homo sapiens, UniProt P09936)
Chain of UniProt P09936 (whole entry, looked up): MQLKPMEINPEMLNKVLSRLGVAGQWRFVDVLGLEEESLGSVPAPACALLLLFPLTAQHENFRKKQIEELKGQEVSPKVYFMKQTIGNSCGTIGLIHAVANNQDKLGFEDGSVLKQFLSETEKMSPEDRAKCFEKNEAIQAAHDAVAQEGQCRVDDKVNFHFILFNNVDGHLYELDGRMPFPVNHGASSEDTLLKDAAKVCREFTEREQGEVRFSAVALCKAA

CNC(=O)c1ccccc1Nc1cc(Nc2ccc(N3CCN(CCCCCCNC(=O)COc4cccc5c4C(=O)N(C4CCC(=O)NC4=O)C5=O)CC3)cc2OC)ncc1C(F)(F)F (stereo not shown)  concentration with observed degradation (PTK2; degrader, immunoblot; PaTu 8988t; 4 h): 1 nM
Cc1cc(C)c(-c2csc(NC(=O)CCl)n2)cc1C  labelling (UCHL1; covalent, intact protein LC-MS; 12.5 µM): 11.6%
C=CC(=O)N1CCC(COCC(=O)N2CCN(c3nc(-c4cnc(N)nc4C(F)F)nc(N4CCOC[C@@H]4C)n3)CC2)CC1  remaining binding (PTK2; KINOMEscan; 1 µM): 100%
CNC(=O)c1ccccc1Nc1cc(Nc2cc(C)c(C3CCN(CCCCCCNC(=O)COc4cccc5c4C(=O)N(C4CCC(=O)NC4=O)C5=O)CC3)cc2OC(C)C)ncc1C(F)(F)F (stereo not shown)  concentration with observed degradation (PTK2; degrader, immunoblot; PaTu 8988t; 4 h): 10 nM
C=CC(=O)N1CCC[C@@H](n2nc(-c3ccc(Oc4ccccc4)cc3)c3c(N)ncnc32)C1  remaining activity (PTK2; 0.1 µM): 158%
Cc1ccc(C(=O)CC#N)cc1  labelling (UCHL1; covalent, intact protein LC-MS; 12.5 µM): 6.99%
COc1cc(F)ccc1-c1ncnc(Nc2cccc(C[S@](C)(=N)=O)c2)n1  remaining activity (PTK2; kinase activity; 10 µM, together with: 10 µM ATP): 91%
CC[C@@H]1[C@H](F)C(=O)N[C@@H]1COc1nccc2cc(C(N)=O)c(OC)cc12  inhibition (PTK2; ATP probe binding, KiNativ profiling, refers to: Lys1 probe site; THP-1 cell lysate; 0.01 mM): 25.4%
CNc1ncc2c(/C=C/C(=O)N3CCC(OC)CC3)nn(Cc3cccc(C(F)(F)F)c3)c2n1  remaining activity (PTK2; kinase activity, inhibitor; 1 µM; baseline: untreated control): 93%
Cc1cc(Nc2cc(N3CCN(C)CC3)nc(Sc3ccc(NC(=O)C4CC4)cc3)n2)[nH]n1  remaining activity (PTK2; kinase activity, KinaseProfiler; 0.03 µM, species human; baseline: control): 84%

Repeated from above:
Cc1cc(C)c(-c2csc(NC(=O)CCl)n2)cc1C  labelling (UCHL1; covalent, intact protein LC-MS; 12.5 µM): 11.6%
